Published values of several laboratories.
Each numbered part is a random draw from the data of one study; scales do not carry over between parts. Values joined by “and” are separate records of one study, mostly repeats; a detail may differ.
Sequence of UniProt Q13523 (whole entry, looked up): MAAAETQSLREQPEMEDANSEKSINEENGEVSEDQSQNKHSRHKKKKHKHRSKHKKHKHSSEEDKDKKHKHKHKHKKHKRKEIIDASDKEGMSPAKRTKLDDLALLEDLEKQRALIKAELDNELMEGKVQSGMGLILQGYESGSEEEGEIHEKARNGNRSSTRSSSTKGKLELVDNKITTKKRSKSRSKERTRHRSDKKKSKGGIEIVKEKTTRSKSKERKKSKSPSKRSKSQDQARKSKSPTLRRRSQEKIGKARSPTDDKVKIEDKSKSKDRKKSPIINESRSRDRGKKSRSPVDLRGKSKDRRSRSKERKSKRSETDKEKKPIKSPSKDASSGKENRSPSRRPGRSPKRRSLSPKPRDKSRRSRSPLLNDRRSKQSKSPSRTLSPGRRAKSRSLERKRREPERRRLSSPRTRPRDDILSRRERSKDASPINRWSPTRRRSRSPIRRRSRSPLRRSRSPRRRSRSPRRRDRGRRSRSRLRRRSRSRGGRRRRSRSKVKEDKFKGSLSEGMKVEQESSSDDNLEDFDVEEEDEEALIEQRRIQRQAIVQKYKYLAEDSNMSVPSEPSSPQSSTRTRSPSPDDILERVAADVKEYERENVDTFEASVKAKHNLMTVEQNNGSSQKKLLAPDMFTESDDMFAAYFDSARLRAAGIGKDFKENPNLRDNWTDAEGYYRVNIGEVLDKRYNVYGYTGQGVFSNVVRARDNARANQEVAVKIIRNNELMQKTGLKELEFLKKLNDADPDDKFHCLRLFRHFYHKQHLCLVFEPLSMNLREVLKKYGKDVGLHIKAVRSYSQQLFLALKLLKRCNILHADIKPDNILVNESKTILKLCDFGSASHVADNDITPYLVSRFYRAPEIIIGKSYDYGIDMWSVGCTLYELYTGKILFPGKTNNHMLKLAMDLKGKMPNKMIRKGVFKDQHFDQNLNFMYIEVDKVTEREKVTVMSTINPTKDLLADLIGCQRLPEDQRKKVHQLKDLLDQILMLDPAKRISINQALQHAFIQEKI
Sequence of UniProt P46734 (whole entry, looked up): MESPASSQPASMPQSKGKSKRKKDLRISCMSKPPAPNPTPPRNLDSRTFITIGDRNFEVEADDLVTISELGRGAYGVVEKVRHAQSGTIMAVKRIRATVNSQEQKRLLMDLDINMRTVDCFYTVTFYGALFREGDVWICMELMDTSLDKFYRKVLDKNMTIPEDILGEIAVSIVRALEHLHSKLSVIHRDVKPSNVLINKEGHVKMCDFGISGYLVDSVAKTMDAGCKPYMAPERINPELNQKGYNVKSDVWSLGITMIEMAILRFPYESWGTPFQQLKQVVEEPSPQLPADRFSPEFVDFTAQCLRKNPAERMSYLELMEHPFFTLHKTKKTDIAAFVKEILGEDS
Sequence of UniProt P35916 (whole entry, looked up): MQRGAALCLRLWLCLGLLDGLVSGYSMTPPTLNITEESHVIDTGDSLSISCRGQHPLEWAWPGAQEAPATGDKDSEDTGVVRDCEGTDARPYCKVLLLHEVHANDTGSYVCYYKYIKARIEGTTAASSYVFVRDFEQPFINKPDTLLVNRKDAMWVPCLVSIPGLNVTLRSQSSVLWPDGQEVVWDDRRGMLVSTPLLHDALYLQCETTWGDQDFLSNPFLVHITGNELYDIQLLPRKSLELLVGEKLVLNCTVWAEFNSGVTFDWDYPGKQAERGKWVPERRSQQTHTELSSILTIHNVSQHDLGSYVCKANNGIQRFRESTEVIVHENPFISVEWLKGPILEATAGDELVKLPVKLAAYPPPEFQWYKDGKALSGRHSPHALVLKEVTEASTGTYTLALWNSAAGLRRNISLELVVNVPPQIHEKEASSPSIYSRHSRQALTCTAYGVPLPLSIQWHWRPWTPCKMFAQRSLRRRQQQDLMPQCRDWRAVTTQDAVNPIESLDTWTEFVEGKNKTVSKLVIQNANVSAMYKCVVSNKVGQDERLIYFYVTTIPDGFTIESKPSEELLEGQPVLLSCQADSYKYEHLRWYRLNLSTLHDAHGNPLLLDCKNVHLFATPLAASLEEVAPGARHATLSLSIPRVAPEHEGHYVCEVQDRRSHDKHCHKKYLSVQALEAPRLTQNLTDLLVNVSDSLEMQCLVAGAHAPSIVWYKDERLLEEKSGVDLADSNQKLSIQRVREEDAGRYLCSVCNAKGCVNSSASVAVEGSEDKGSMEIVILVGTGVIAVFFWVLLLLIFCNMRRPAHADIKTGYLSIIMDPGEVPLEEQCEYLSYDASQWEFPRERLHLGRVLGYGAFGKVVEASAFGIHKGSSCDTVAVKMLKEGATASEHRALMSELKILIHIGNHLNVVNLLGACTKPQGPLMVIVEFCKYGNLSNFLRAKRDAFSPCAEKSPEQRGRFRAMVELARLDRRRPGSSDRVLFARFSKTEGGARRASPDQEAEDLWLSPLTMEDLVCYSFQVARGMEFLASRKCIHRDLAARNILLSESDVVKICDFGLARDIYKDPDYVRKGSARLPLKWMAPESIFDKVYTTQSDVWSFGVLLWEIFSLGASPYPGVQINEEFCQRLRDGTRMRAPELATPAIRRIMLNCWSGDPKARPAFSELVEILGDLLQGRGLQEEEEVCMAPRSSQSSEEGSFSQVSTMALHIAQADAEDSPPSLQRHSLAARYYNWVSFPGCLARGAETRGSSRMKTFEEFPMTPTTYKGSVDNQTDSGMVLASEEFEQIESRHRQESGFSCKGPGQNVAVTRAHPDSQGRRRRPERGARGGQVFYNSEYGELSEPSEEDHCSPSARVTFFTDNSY
Sequence of UniProt P07333 (whole entry, looked up): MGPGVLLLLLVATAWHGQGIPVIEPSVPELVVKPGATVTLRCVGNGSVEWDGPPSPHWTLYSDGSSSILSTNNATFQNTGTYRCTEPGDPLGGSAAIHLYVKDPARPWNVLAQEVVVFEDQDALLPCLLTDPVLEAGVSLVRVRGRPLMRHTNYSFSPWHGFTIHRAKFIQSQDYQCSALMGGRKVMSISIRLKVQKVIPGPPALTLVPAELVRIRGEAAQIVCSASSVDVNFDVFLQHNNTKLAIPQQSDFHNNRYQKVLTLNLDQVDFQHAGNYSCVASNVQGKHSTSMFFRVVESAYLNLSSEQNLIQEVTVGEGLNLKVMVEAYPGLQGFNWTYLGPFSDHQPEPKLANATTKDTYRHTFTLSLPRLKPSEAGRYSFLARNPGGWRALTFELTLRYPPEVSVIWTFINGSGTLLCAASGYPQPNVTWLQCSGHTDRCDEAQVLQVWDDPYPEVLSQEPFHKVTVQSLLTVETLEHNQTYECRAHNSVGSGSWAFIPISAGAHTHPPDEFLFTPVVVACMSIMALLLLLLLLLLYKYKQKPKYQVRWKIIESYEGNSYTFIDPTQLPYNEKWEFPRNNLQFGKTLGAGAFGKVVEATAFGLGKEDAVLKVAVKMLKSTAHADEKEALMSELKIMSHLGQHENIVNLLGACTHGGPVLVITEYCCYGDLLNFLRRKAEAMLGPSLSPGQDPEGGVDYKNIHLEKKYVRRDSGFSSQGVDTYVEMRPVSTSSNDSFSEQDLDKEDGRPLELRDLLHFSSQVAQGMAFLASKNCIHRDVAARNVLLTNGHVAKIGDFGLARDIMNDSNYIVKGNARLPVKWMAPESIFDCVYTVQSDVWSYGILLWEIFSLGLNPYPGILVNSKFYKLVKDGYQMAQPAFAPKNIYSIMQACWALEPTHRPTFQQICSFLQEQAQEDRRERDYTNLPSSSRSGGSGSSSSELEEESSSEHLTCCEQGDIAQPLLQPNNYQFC
Sequence of UniProt Q8TDC3 (whole entry, looked up): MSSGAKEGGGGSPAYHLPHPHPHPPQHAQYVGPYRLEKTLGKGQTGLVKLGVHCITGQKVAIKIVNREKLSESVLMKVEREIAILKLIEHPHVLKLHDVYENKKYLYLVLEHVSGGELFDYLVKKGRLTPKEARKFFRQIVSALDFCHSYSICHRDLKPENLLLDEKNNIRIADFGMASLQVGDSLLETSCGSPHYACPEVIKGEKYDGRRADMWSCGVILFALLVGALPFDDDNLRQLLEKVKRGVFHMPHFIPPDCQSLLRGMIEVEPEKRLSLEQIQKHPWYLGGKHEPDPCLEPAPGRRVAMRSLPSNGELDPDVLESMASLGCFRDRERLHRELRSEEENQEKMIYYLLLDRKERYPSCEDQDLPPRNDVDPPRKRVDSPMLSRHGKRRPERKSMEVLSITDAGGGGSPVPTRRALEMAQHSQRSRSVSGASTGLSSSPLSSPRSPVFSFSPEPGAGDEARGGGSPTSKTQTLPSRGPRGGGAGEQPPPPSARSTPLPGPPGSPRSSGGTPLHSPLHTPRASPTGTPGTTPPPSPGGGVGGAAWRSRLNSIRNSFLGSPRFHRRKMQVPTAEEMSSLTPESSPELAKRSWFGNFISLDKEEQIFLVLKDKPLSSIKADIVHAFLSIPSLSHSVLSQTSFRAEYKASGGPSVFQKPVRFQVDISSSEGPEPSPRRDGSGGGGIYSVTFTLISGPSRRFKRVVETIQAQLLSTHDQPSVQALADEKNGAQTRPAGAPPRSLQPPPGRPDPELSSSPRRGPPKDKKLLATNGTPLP

Study 1
Structure (SMILES): C[C@H]1CC[C@H](n2c3cnccc3c3cnc(Nc4ccc5c(n4)CCN(C(=O)CO)C5)nc32)CC1
Observed: cell-free assay
Concentration: 1 µM
target	remaining signal [%]
Phosphatidylinositol 4-kinase beta (PI4KB, Homo sapiens, UniProt Q9UBF8)	29
STE20/SPS1-related proline-alanine-rich protein kinase (STK39, Homo sapiens, UniProt Q9UEW8)	73
Serine/threonine-protein kinase BRSK1 (BRSK1, Homo sapiens, UniProt Q8TDC3)	57
Serine/threonine-protein kinase RIO2 (RIOK2, Homo sapiens, UniProt Q9BVS4)	7.6
Myosin light chain kinase, smooth muscle (MYLK, Homo sapiens, UniProt Q15746)	100
Serine/threonine-protein kinase MARK2 (MARK2, Homo sapiens, UniProt Q7KZI7)	63
Inhibitor of nuclear factor kappa-B kinase subunit epsilon (IKBKE, Homo sapiens, UniProt Q14164)	99
Dual specificity mitogen-activated protein kinase kinase 3 (MAP2K3, Homo sapiens, UniProt P46734)	8.1

Study 2
Compound: O=C(NC[C@@H]1[C@H]2CN(C(=O)OCc3cc(C(F)(F)F)cc(C(F)(F)F)c3)C[C@@H]12)c1ccc2[nH]nnc2c1
Observed: cell-free assay
Method: competition with immobilised ligand
Concentration: 1 µM
target	remaining binding [%]
Macrophage colony-stimulating factor 1 receptor (CSF1R, Homo sapiens, UniProt P07333)	99
Serine/threonine-protein kinase PRP4 homolog (PRPF4B, Homo sapiens, UniProt Q13523)	100
Phosphatidylinositol 4,5-bisphosphate 3-kinase catalytic subunit alpha isoform (PIK3CA, Homo sapiens, UniProt P42336, H1047L)	100
Vascular endothelial growth factor receptor 3 (FLT4, Homo sapiens, UniProt P35916)	88
Focal adhesion kinase 1 (PTK2, Homo sapiens, UniProt Q05397)	100
Insulin-like growth factor 1 receptor (IGF1R, Homo sapiens, UniProt P08069)	100

Study 3
Cell line: A-375
Concentration: 100 µM
Time: 18 h
Compound	viability
O=C(CCCl)NCc1ccccc1	95.4%
CC(=O)c1ccc(S(=O)(=O)NC(=O)NC2CCCCC2)cc1	69.4%
CC(C(=O)O)c1ccc2c(c1)CC(=O)c1ccccc1S2 (centres unmarked)	97.5%
OC(CCCN1CCCCC1)(c1ccccc1)c1ccccc1	86%
CC1(C)[C@@H](O[C@H]2O[C@H](C(=O)O)[C@@H](O)[C@H](O)[C@H]2O[C@@H]2O[C@H](C(=O)O)[C@@H](O)[C@H](O)[C@H]2O)CC[C@]2(C)[C@H]3C(=O)C=C4[C@@H]5C[C@@](C)(C(=O)O)CC[C@]5(C)CC[C@@]4(C)[C@]3(C)CC[C@@H]12	95% and 104%
CCC1(C)CC(=O)NC1=O (centres unmarked)	95.2%
C=C1CCN([C@H](C)[C@](O)(Cn2cncn2)c2ccc(F)cc2F)CC1	14.6%
CC(C)N1CCN(c2ccc(OC[C@H]3CO[C@](Cn4cncn4)(c4ccc(Cl)cc4Cl)O3)cc2)CC1 (racemic)	10.1%

Study 4
Target: Serine/threonine-protein kinase 26 (STK26, Homo sapiens, UniProt Q9P289)
Sequence of UniProt Q9P289 (whole entry, looked up): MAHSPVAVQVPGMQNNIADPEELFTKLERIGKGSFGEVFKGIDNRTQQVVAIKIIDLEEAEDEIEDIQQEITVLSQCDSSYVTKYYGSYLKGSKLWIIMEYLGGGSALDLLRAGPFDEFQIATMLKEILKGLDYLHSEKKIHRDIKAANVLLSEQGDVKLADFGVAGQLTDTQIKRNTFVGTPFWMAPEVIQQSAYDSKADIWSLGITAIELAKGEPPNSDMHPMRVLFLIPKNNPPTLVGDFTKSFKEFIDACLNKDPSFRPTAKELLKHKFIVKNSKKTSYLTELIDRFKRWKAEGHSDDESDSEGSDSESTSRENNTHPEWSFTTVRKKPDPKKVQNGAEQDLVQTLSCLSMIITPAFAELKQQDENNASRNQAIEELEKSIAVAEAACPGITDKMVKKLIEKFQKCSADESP
Observed: enzyme activity
Action: inhibitor
Concentration: 0.5 µM
Relative to: control
Compound	remaining activity [%]
O=C(CCCc1ccc(-c2ccccc2F)cc1)Nc1ccc(O)cc1	91.5
CCOC(=O)c1c(C)[nH]c(/C=C2\C(=O)Nc3ccccc32)c1C	101
NCCNc1ncc(C(N)=O)c(Nc2cccc(C(F)(F)F)c2)n1	117
O=C1NC(=O)C(c2cn(CCCn3ccnc3)c3ccccc23)=C1Nc1ccccc1	22.2
Cn1c2ccccc2c2c3c(c4c5ccccc5n(CCC#N)c4c21)CNC3=O	89.8
Nc1ccc2ncnc(NCCc3ccc(Oc4ccccc4)cc3)c2c1	94.4
COc1ccc(CNC(=O)Nc2ncc([N+](=O)[O-])s2)cc1	113
O=C(O)c1ccc2c3c1cccc3c(=O)n1c3ccccc3nc21	97.8
Cn1sc(=O)n(Cc2ccccc2)c1=O	98.1
Cc1cccc(-c2[nH]c(C(C)(C)C)nc2-c2ccc3c(c2)OCO3)n1	95.5
Cc1ccc(Nc2nccc(N(C)c3ccc4c(C)n(C)nc4c3)n2)cc1S(N)(=O)=O	108
COc1cc2ncnc(Nc3ccc(F)c(Cl)c3)c2cc1OCCCN1CCOCC1	106
CC(C)[C@H](CO)Nc1nc(Nc2cc(N)cc(Cl)c2)c2ncn(C(C)C)c2n1	67.8
C#Cc1cccc(Nc2ncnc3cc(OCCOC)c(OCCOC)cc23)c1	106
CNC(=O)c1cc(Oc2ccc(NC(=O)Nc3ccc(Cl)c(C(F)(F)F)c3)cc2)ccn1	101
COc1ccc(OC)c2c(=S)c3ccccc3[nH]c12	90.8

Repeated from above (study 3):
Compound	viability
CCC1(C)CC(=O)NC1=O (centres unmarked)	95.2%
CC(=O)c1ccc(S(=O)(=O)NC(=O)NC2CCCCC2)cc1	69.4%
C=C1CCN([C@H](C)[C@](O)(Cn2cncn2)c2ccc(F)cc2F)CC1	14.6%
O=C(CCCl)NCc1ccccc1	95.4%
